Measured values from different studies.
Lines come from different studies, so protocols differ. ± marks the error that the study gave.
gdpP residues 84-659: gdpP, residues 84-659 (Bacillus subtilis, UniProt P37484)
xlnD: Exo-1,4-beta-xylosidase xlnD (xlnD, Emericella nidulans, UniProt Q5BAS1)
ALB: Albumin (ALB, Bos taurus, UniProt P02769)
RMS3: RMS3 (Lathyrus oleraceus, UniProt A0A109QYD3)
KCNQ2: Potassium voltage-gated channel subfamily KQT member 2 (KCNQ2, Homo sapiens, UniProt O43526)

Structure (SMILES)	target	test	system	conditions	scale	endpoint	value
Nc1ncnc2c1ncn2[C@@H]1O[C@@H]2COP(=O)(O)O[C@H]3[C@@H](O)[C@H](n4cnc5cncnc54)O[C@@H]3COP(=O)(O)O[C@H]2[C@H]1O	gdpP residues 84-659	HPLC	–	concentration not given	reference: c-di-AMP, higher = slower hydrolysis	hydrolysis rate fold decrease	3.8
C=CCN1CCc2cccc3c2[C@H]1Cc1ccc(O)c(O)c1-3	Carbamate kinase (Giardia intestinalis, UniProt A8BB85)	enzyme activity, inhibitor, luminescence, ATP detection	Giardia lamblia	–	–	maximal inhibition	89%
Cc1cc2c(cc1Cl)Cc1c(C(=O)NN3CCCCC3)nn(-c3ccc(Cl)cc3Cl)c1-2	Cannabinoid receptor 2 (Cnr2, Mus musculus, UniProt P47936)	radioligand displacement	mouse brain and spleen homogenates	with: [3H]CP-55,940	reference: Ki CB1 over Ki CB2	selectivity ratio	14
COC(=O)C1C(OC(c2ccc(Cl)cc2)c2ccc(Cl)cc2)CC2CCC1N2C (single isomer, unassigned)	rat GABAA receptor agonist site	binding, radioligand displacement	–	inactive if below 75% at 10000 nM, with: [3H]muscimol	–	Ki	inactive
O[C@@H]1[C@@H](O)[C@H](O[C@@H]2OC[C@@H](O)[C@H](O)[C@H]2O)C[C@H]2N[C@@H]12	xlnD	covalent inhibitor	Aspergillus nidulans	pH 4.5, ambient, with: 4MU-β-D-xyloside	–	kinact	0.00433 s⁻¹
NC(=NN=Cc1cccs1)[S][Ru+]([Cl])([P](c1ccccc1)(c1ccccc1)c1ccccc1)[P](c1ccccc1)(c1ccccc1)c1ccccc1.[Cl-]	ALB	fluorescence quenching	–	with: ibuprofen, site II marker	–	quenching rate constant	1.14e+11 M⁻¹ s⁻¹
Oc1ccc2c(c1)[O][Pt-2]1([Cl])[N+](=C2)Cc2cccc[n+]21 (stereo not shown)	ALB	binding to BSA	–	–	–	binding free energy	-9.54 kcal/mol
O=C(O)COc1ccc(Cl)cc1	Chloride channel protein (Torpedo marmorata, UniProt P21564, C212S)	chloride current, inhibitor, inside-out patch clamp	–	5 mM, low extracellular chloride, unit not given	reference: 100 mM extracellular chloride	open channel affinity increase	3 to 4
C[C@]12CC[C@H](OC(=O)CN(CCN(CCN(CC(=O)O)CC(=O)O)CC(=O)O)CC(=O)O)C[C@H]1CC[C@@H]1[C@@H]2CC[C@]2(C)[C@@H](C3=CC(=O)OC3)CC[C@]12O	Na+/K+-ATPase α1-3, porcine cortex	enzyme activity, inhibitor, malachite green phosphate release	–	0.1 µM, 30 min	–	remaining activity	< 50%
COc1cc(COc2ccc3c(c2)CN(C(=O)[C@H](CCC(=O)O)NC(=O)[C@H](CC(=O)O)NC(=O)[C@H](CC(=O)O)NC(=O)[C@H](CCC(=O)O)NC(=O)[C@@H](CCCNC(=N)N)NC(=O)[C@@H](CCCNC(=N)N)NC(=O)[C@@H](CCCNC(=N)N)NC(=O)[C@H](C)N(C)C(=O)[C@H](Cc2ccccc2)NC(=O)[C@@H](NC(=O)[C@H](Cc2ccccc2)NC(=O)[C@H](C)NC(=O)[C@H](CCCNC(=N)N)N(C)C(=O)[C@@H]2CCCN2C(=O)[C@H](CCCNC(=N)N)NC(=O)CNC(=O)c2ccc4c(c2)C2(OC4=O)c4ccc(O)cc4Oc4cc(O)ccc42)[C@@H](C)OCc2cc(OC)c(OC)cc2[N+](=O)[O-])[C@H](C(=O)N[C@@H](CCC(=O)O)C(=O)N[C@@H](CCC(=O)O)C(=O)N[C@H](C(N)=O)C(C)C)C3)c([N+](=O)[O-])cc1OC	Epidermal growth factor receptor (EGFR, Homo sapiens, UniProt P00533)	reporter phosphorylation, substrate	–	concentration not given, 60 min, without photoactivation	–	phosphorylation	0%
O=C(Nc1ccc(-c2nc3ncccc3o2)cc1)c1ccccc1Br	Nucleoside transporter 1 (Plasmodium vivax, UniProt A5K8B0, N329S)	[3H]adenosine uptake	–	–	reference: N329S mutant over wild type	IC50 ratio	2.6 fold
CCOC(=O)/C=C/[C@H](C[C@@H]1CCNC1=O)NC(=O)[C@H](Cc1ccccc1)NC(=O)[C@H](COC(C)(C)C)NC(=O)OCc1ccccc1	Genome polyprotein, 3C protease (Saffold virus, UniProt C0MHL9)	protease activity, cell-based reporter	–	–	–	FLuc reporter expression	no effect
Nc1nc2ncc(CNc3ccc(C(=O)N[C@@H](CCC(=O)NCCOCCOCCNC(=O)CN4CCN5CCN(CC4)CC(=O)[O][Al]([18F])[O]C(=O)C5)C(=O)O)cc3)nc2c(=O)[nH]1	Folate receptor alpha (FOLR1, Homo sapiens, UniProt P15328)	radioligand saturation binding	KB xenograft homogenate	–	–	Bmax	511 nM
O=C(CCCC[C@@H]1SC[C@@H]2NC(=O)N[C@@H]21)NCCCCCCCCN1[C@H]2[C@H](O)[C@@H](O)[C@H](O[C@@H]3OC[C@@H](O)[C@H](O)[C@H]3O)C[C@H]21 (stereo partly shown)	xlnD	covalent inhibitor	Aspergillus nidulans	pH 4.5	–	kinact/Ki	3.33 M⁻¹ s⁻¹
CC(=O)N[C@@H](CC(C)C)C(=O)N[C@@H](CCC(=O)O)C(=O)N[C@@H](Cc1c[nH]cn1)C(=O)N[C@@H](CC(=O)O)C(=O)Nc1ccc2c(C)cc(=O)oc2c1	Caspase-8 (CASP8, Homo sapiens, UniProt Q14790)	substrate cleavage, substrate, fluorogenic AMC release	–	enzyme 0.25 activity units/µL	–	Vmax	1100 ± 37.6 RFU/min
CC[C@H](C)[C@H](NC(=O)[C@H](CC(=O)O)NC(C)=O)C(=O)N[C@H](C(=O)N[C@H](C(=O)N[C@@H](CCCNC(=N)N)C(=O)N[C@@H](Cc1ccc(O)cc1)C(=O)N[C@@H](CC(N)=O)C(=O)NCC(=O)N[C@@H](CCCCN)C(=O)N[C@H](C(=O)N[C@@H](Cc1c[nH]c2ccccc12)C(=O)N[C@@H](Cc1c[nH]c2ccccc12)C(=O)N[C@@H](CCCNC(=N)N)C(=O)O)C(C)C)[C@@H](C)O)[C@@H](C)O	Insulin (INS, Bos taurus, UniProt P01317)	isothermal titration calorimetry	–	pH 2.6, 25 °C	–	Ka, site 3	41600 M⁻¹
O=P1(O)OC[C@H]2O[C@@H](n3cnc4cncnc43)[C@H](O)[C@@H]2OP(=O)(O)OC[C@H]2O[C@@H](n3cnc4cncnc43)[C@H](O)[C@@H]2O1	gdpP residues 84-659	HPLC	–	concentration not given	reference: c-di-AMP, higher = slower hydrolysis	hydrolysis rate fold decrease	36

Structure (SMILES)	target	test	system	conditions	scale	endpoint	value
Nc1ncnc2c1ncn2[C@@H]1O[C@H](COP(=O)(O)OP(=O)(O)OC[C@H]2O[C@@H](O)[C@H](O)[C@@H]2O)[C@@H](O)[C@H]1O	Protein mono-ADP-ribosyltransferase PARP14, macrodomain 2 (PARP14, Homo sapiens, UniProt Q460N5)	isothermal titration calorimetry	–	concentration not given	–	binding stoichiometry	0.96 ± 0.01
Cn1cc(-c2cccc(CN3CCC4(CC3)COc3c4ccc4c3CN([C@H]3CCC(=O)NC3=O)C4=O)c2)cn1	Zinc finger protein Aiolos (Homo sapiens, UniProt Q9UKT9)	degrader, HiBiT	HEK293	6 h	–	Dmax	< 20%
C#CC[C@H](NC(=O)CNC(=O)[C@H](CO)NC(=O)[C@@H]1CCCCNC(=O)CCCC(=O)N[C@@H](CCSC)C(=O)N[C@@H](Cc2c[nH]c3ccccc23)C(=O)N2CCC[C@H]2C(=O)N[C@@H](Cc2c[nH]cn2)C(=O)N[C@@H](CCCNC(=N)N)C(=O)N[C@@H](C(C)C)C(=O)N[C@@H]([C@@H](C)O)C(=O)N[C@@H](C)C(=O)N(C)[C@@H](C)C(=O)N1)C(=O)O	ubiquitin	radiolabelled pull-down	–	concentration not given, 60 min, room temperature	–	binding	no binding
CC1=C(C)[C@H](Oc2c(F)cc3c(C)cc(=O)oc3c2F)OC1=O	RMS3	enzyme activity, substrate, DiFMU release	–	pre-steady state	–	kcat/K1/2	1970 M⁻¹ s⁻¹
C[n+]1ccc(C(=O)NC2CCC3(O)C4Cc5ccc(O)c6c5C3(CC[N+]4(C)CC3CC3)C2O6)cc1 (stereo not shown)	Kappa-type opioid receptor (Oprk1, Mus musculus, UniProt P33534)	G protein activation, agonist	–	–	reference: 3 µM U50488H	Emax	37.7 ± 1.58%
CCN(Cc1ccccc1)C(=O)CCc1nc(CN2CCN(C(=O)Cc3ccc(OC)c(OC)c3)CC2)no1	KCNQ2	whole-cell patch clamp	CHO stable	100 nM	–	V1/2 of activation	-40.3 ± 22 mV
O=C(Nc1cccc(-c2nn[nH]n2)c1)c1cc(-c2cccs2)cc(C(F)(F)F)c1	CTX-M-27 beta-lactamase	surface plasmon resonance	–	–	–	Kd/Ki difference	2 to 3 fold
CC(C)CC(=O)NC1CCCC1=O (stereo not shown)	HTH-type quorum-sensing regulator RhlR (rhlR, Pseudomonas aeruginosa, UniProt P54292)	reporter gene, agonist, measured: rhlI-gfp fluorescence	PAO-JP2 reporter	–	–	maximal activation	96%
COC(=O)C=CCCC(NC(=O)c1ccncc1C(=O)O)C(=O)NC(C(=O)N1CC(=O)CC1C(=O)NC(C(=O)NC(C(N)=O)C1CCCCC1)C1CCCCC1)C(C)(C)C (stereo not shown)	Protein-glutamine gamma-glutamyltransferase E (Homo sapiens, UniProt Q08188)	transamidation activity, inhibitor	–	–	reference: TG3 IC50 over FXIII-A2 IC50	selectivity ratio	2790
CC[C@H](C)[C@H](NC(=O)[C@H](CCCNC(=N)N)NC(=O)[C@H](CO)NC(=O)[C@@H](NC(=O)[C@H](CC(=O)O)NC(=O)[C@H](CC(=O)O)NC(=O)CCCCCNC(=O)c1ccc2c(c1)C(=O)OC21c2ccc(O)cc2Oc2cc(O)ccc21)[C@@H](C)O)C(=O)N[C@@H](CCC(=O)O)C(=O)N[C@@H](CCC(=O)O)C(=O)N[C@H](C(=O)N[C@@H](CC(=O)O)C(=O)O)C(C)C	Peptidyl-prolyl cis-trans isomerase FKBP4 (FKBP4, Homo sapiens, UniProt Q02790)	binding, fluorescence polarization	–	pH 7.4, full-length protein	reference: wild-type Hsp90α tracer	affinity decrease	≥ 12 fold
CC(C)OC(=O)[C@H](C)NP(=S)(Oc1ccccc1)c1ccccc1 (stereo partly shown)	Carboxypeptidase Y (Saccharomyces cerevisiae, UniProt P00729)	substrate, LC-MS/MS	–	5 µM, pH 7.4, 37 °C, with: carboxypeptidase Y 60 ng/mL	–	degradation rate constant	0.0178 min⁻¹
CC(C)C[C@@H](NC(=O)[C@H]1CCCN1C(=O)[C@H](N)CC(=O)O)C(=O)N[C@H](CCCCN)C(=O)N[C@H](C)C(=O)N[C@H](CCCNC(=N)N)C(=O)N[C@H](Cc1c[nH]cn1)C(=O)N[C@@H](C(=O)N[C@H](CO)C(=O)N[C@@H](C(=O)N[C@H](Cc1c[nH]c2ccccc12)C(=O)N[C@H](Cc1ccc(O)cc1)C(N)=O)C(C)C)[C@H](C)O	Microtubule-associated protein tau, repeat domain (MAPT, Homo sapiens, UniProt P10636, del597-597)	dynamic light scattering	–	100 µM, 24 h, 10 µM tau, with: 2.5 µM heparin	–	aggregate diameter	3000 to 4000 nm
N#CC[C@H](N)C(=O)O	Cystathionine beta-synthase (CBS, Homo sapiens, UniProt P35520)	inhibitor, methylene blue	–	recombinant GST fusion	–	inhibitory concentration	> 1 mM
CC(C)P(=[Se])(NP(=[Se])(C(C)C)C(C)C)C(C)C	Alpha-amylase (Bacillus subtilis, UniProt P00691)	fluorescence quenching	–	concentration not given, pH 6.8, 298 K	–	ΔG of binding	-2.94 kcal/mol
CC1=CC(Oc2c(F)cc3c(C)cc(=O)oc3c2F)OC1=O (racemic)	RMS3	enzyme activity, substrate, DiFMU release	–	pre-steady state	–	kcat/K1/2	233 M⁻¹ s⁻¹
O=C(Cc1ccc(F)cc1)N1CCN(Cc2noc(-c3cccc(Cl)c3)n2)CC1	KCNQ2	potassium current, activator, whole-cell patch clamp	CHO, stable	20 µM	reference: current before compound	current fold increase	1.08 ± 0.06
CC(=O)NC(Cc1ccc(Br)c(Cl)c1)C(=O)N[C@@H](C)C(=O)N1CCC[C@H]1C(=O)N1CCC[C@H]1C(=O)N[C@@H](CCC(=O)O)C(=O)N[C@@H](Cc1c[nH]cn1)C(=O)N[C@@H](CO)C(=O)N[C@H](C(=O)N[C@@H](C)C(N)=O)[C@@H](C)OP(=O)(O)O (stereo partly shown)	Tyrosine-protein kinase JAK3 (JAK3, Homo sapiens, UniProt P52333)	–	–	10 µM	–	inhibition	0.58 ± 0.03%

For quick reference, copied from above:
Structure (SMILES)	target	test	system	conditions	scale	endpoint	value
COC(=O)C=CCCC(NC(=O)c1ccncc1C(=O)O)C(=O)NC(C(=O)N1CC(=O)CC1C(=O)NC(C(=O)NC(C(N)=O)C1CCCCC1)C1CCCCC1)C(C)(C)C (stereo not shown)	Protein-glutamine gamma-glutamyltransferase E (Homo sapiens, UniProt Q08188)	transamidation activity, inhibitor	–	–	reference: TG3 IC50 over FXIII-A2 IC50	selectivity ratio	2790
O=C(Nc1cccc(-c2nn[nH]n2)c1)c1cc(-c2cccs2)cc(C(F)(F)F)c1	CTX-M-27 beta-lactamase	surface plasmon resonance	–	–	–	Kd/Ki difference	2 to 3 fold
Nc1nc2ncc(CNc3ccc(C(=O)N[C@@H](CCC(=O)NCCOCCOCCNC(=O)CN4CCN5CCN(CC4)CC(=O)[O][Al]([18F])[O]C(=O)C5)C(=O)O)cc3)nc2c(=O)[nH]1	Folate receptor alpha (FOLR1, Homo sapiens, UniProt P15328)	radioligand saturation binding	KB xenograft homogenate	–	–	Bmax	511 nM
CCOC(=O)/C=C/[C@H](C[C@@H]1CCNC1=O)NC(=O)[C@H](Cc1ccccc1)NC(=O)[C@H](COC(C)(C)C)NC(=O)OCc1ccccc1	Genome polyprotein, 3C protease (Saffold virus, UniProt C0MHL9)	protease activity, cell-based reporter	–	–	–	FLuc reporter expression	no effect
CC(C)C[C@@H](NC(=O)[C@H]1CCCN1C(=O)[C@H](N)CC(=O)O)C(=O)N[C@H](CCCCN)C(=O)N[C@H](C)C(=O)N[C@H](CCCNC(=N)N)C(=O)N[C@H](Cc1c[nH]cn1)C(=O)N[C@@H](C(=O)N[C@H](CO)C(=O)N[C@@H](C(=O)N[C@H](Cc1c[nH]c2ccccc12)C(=O)N[C@H](Cc1ccc(O)cc1)C(N)=O)C(C)C)[C@H](C)O	Microtubule-associated protein tau, repeat domain (MAPT, Homo sapiens, UniProt P10636, del597-597)	dynamic light scattering	–	100 µM, 24 h, 10 µM tau, with: 2.5 µM heparin	–	aggregate diameter	3000 to 4000 nm
